Experimental data of several laboratories.
Parts stem from different laboratories: compare values within a part only. Values joined by “and” are separate records of one study, mostly repeats; a detail may differ.
UniProt P29323, sequence (whole entry, looked up): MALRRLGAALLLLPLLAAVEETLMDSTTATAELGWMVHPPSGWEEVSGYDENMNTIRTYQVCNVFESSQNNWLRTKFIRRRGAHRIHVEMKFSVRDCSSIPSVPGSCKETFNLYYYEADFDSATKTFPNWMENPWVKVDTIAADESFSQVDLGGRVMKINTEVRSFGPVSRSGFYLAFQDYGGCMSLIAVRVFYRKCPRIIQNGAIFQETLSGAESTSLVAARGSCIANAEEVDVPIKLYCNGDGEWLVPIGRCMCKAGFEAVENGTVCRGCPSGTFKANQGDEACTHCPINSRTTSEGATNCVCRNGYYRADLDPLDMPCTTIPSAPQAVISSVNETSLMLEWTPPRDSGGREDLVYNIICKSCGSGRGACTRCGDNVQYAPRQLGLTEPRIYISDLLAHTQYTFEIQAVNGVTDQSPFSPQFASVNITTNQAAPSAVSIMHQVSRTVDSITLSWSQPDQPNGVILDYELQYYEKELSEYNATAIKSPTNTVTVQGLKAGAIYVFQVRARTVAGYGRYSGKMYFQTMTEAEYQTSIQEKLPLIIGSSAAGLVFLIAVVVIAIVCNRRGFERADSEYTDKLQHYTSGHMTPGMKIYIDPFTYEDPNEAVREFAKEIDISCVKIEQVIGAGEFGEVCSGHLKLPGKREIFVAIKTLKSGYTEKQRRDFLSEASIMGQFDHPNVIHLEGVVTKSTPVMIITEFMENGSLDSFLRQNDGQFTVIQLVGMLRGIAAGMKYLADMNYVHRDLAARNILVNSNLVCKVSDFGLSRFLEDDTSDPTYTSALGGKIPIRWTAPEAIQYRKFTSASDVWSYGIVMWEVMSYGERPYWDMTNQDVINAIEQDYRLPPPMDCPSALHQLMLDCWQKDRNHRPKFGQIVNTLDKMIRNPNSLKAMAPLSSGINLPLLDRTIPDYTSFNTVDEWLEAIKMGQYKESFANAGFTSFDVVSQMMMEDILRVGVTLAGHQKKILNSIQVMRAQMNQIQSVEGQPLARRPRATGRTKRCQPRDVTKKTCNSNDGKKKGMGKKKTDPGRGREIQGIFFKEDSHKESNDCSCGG
UniProt Q8IWQ3, sequence (whole entry, looked up): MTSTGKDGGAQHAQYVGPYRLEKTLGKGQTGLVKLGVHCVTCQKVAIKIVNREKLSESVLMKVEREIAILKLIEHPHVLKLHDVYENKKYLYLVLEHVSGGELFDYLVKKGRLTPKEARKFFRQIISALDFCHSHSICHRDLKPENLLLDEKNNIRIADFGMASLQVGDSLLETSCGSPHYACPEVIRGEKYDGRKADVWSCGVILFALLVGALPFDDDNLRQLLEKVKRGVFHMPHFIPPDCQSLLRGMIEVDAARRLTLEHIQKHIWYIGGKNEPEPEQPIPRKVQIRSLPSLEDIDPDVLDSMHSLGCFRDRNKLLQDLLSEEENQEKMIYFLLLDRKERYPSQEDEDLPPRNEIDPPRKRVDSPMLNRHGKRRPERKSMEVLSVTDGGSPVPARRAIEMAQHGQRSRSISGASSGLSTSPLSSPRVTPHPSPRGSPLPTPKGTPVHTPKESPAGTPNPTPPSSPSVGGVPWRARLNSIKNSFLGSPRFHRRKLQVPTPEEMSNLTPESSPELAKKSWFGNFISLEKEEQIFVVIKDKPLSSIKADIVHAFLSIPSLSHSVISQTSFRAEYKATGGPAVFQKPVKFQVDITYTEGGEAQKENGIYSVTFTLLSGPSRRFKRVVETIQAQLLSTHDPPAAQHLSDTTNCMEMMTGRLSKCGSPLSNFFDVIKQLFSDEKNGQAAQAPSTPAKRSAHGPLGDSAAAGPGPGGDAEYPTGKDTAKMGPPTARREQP
UniProt Q14012, sequence (whole entry, looked up): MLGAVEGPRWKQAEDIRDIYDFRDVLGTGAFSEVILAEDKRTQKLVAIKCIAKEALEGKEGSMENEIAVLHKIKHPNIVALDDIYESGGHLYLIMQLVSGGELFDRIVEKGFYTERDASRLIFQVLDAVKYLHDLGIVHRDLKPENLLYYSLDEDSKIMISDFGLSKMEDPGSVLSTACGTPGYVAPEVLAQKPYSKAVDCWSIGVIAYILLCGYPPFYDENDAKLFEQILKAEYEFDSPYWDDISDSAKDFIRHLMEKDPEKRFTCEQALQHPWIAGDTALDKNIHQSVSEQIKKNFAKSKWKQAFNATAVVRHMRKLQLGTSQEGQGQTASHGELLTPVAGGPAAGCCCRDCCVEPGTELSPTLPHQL
UniProt O96013, sequence (whole entry, looked up): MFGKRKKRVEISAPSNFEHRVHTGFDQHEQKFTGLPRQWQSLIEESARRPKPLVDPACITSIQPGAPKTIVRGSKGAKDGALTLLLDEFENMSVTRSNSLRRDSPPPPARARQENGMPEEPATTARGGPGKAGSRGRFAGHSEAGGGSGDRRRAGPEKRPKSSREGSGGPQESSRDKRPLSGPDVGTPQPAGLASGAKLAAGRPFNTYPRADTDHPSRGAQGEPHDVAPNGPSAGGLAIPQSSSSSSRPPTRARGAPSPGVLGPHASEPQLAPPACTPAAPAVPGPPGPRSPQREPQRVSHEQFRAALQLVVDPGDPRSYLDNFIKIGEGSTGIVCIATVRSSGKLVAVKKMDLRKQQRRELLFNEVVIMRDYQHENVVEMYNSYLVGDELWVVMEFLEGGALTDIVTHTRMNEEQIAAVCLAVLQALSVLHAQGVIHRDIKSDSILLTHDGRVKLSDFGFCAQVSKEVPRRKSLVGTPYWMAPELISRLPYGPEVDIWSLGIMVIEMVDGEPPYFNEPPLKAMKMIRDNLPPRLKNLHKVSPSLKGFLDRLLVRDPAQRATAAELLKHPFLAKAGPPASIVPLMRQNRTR
UniProt Q00535, sequence (whole entry, looked up): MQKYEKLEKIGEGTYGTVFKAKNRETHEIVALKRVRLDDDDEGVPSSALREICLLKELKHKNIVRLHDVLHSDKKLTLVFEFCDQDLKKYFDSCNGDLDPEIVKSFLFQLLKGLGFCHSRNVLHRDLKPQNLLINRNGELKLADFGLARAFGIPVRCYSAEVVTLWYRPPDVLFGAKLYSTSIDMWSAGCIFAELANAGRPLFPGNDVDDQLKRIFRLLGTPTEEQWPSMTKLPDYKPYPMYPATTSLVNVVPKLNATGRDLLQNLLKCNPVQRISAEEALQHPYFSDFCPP
UniProt P11309, sequence (whole entry, looked up): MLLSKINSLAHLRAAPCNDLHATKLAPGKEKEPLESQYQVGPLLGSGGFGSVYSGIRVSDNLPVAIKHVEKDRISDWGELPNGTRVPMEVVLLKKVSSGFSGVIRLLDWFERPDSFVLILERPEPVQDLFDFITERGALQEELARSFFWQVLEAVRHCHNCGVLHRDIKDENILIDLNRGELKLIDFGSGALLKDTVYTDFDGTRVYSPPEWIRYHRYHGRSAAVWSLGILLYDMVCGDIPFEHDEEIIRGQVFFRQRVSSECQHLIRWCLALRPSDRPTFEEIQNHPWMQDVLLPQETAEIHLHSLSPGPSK
UniProt Q96SB4, sequence (whole entry, looked up): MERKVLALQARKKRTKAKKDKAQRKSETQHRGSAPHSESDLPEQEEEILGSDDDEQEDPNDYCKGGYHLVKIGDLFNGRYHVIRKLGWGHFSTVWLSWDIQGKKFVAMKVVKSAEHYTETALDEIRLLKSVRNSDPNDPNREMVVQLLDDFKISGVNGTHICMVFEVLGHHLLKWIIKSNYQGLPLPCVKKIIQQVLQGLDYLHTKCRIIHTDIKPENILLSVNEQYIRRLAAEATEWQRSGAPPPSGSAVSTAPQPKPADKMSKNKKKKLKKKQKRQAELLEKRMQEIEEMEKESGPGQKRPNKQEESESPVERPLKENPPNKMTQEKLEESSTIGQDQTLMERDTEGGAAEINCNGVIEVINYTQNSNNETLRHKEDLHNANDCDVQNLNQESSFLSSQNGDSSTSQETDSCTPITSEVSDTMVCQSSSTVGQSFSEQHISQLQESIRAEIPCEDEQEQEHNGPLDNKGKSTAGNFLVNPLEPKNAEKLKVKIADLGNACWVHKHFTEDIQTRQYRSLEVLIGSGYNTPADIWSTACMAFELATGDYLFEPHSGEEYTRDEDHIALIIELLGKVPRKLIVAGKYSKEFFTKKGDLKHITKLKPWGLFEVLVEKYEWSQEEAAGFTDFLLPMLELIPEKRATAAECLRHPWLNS
UniProt Q96GD4, sequence (whole entry, looked up): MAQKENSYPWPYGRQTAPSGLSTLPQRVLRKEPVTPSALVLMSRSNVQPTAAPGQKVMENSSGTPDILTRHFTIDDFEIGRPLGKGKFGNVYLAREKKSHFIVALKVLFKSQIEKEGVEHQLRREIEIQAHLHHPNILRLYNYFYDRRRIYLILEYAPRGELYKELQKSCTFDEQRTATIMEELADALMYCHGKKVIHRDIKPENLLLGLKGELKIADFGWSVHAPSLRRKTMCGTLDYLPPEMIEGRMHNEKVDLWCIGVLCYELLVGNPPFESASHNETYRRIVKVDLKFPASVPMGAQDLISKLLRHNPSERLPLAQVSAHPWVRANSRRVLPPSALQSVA
UniProt Q9Y2H1, sequence (whole entry, looked up): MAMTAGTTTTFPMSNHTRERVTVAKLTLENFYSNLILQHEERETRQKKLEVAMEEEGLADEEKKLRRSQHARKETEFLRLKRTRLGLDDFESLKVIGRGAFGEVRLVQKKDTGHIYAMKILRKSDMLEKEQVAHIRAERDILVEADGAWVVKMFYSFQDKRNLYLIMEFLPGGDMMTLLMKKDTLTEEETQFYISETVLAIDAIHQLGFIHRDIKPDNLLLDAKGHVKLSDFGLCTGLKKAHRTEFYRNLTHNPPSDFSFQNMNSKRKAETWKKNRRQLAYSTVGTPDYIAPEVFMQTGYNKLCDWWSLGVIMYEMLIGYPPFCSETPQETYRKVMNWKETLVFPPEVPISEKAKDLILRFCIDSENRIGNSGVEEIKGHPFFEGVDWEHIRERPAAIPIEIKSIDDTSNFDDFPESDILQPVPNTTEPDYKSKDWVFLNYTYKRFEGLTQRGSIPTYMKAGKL

Block 1
SMILES: O=C1NC(c2ccccn2)Sc2ccccc21 (stereo not shown)
Concentration: 1 µM
Endpoint: remaining binding
target = Ephrin type-B receptor 2 (EPHB2, Homo sapiens, UniProt P29323); assay = cell-free assay, competition with immobilised ligand; value = 71%
target = Serine/threonine-protein kinase SIK1 (SIK1, Homo sapiens, UniProt P57059); assay = competition binding; value = 88%
target = Ephrin type-A receptor 1 (EPHA1, Homo sapiens, UniProt P21709); assay = cell-free assay, competition with immobilised ligand; value = 100%
target = Receptor-type tyrosine-protein kinase FLT3 (FLT3, Homo sapiens, UniProt P36888, ITD); assay = cell-free assay, competition with immobilised ligand; value = 100%
target = Serine/threonine-protein kinase 38-like (STK38L, Homo sapiens, UniProt Q9Y2H1); assay = cell-free assay, competition with immobilised ligand; value = 58%
target = Aurora kinase B (AURKB, Homo sapiens, UniProt Q96GD4); assay = cell-free assay, competition with immobilised ligand; value = 100%

Block 2
Target: Diamine acetyltransferase 1 (Homo sapiens, UniProt P21673)
Action: inhibitor
Concentration: 10 µM
Relative to: control
Endpoint: remaining activity
Target sequence (P21673 1-171): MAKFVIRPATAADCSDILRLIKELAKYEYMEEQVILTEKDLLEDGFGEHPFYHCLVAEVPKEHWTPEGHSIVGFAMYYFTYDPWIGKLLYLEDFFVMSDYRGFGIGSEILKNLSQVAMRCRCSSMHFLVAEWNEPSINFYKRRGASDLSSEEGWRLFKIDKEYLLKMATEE
SMILES = CC(O)(CC(=O)O)CC(=O)O; value = 77.8%
SMILES = O=c1ccc2ccc(O[C@@H]3O[C@H](CO)[C@@H](O)[C@H](O)[C@H]3O)cc2o1; value = 88.6%
SMILES = O=c1c(-c2ccccc2)coc2ccccc12; value = 96%
SMILES = CC1(C)C=Cc2c(ccc3c2OC[C@@H](c2ccc(O)cc2O)C3)O1; value = 84.9%

Block 3
Species: human
Sample: microsomes or S9
Concentration: 2 µM
Time: 0.5 h
Endpoint: remaining compound
Structure (SMILES) = COc1cc(Nc2ncc(-c3cnn(C)c3)c(Nc3ccc4c(c3)CNCC4)n2)cc(OC)c1; value = 82.8%
Structure (SMILES) = CCc1ccc(C2c3cccn3-c3sc4c(c3CN2C(=O)Nc2ccc(OC)c(OC)c2)CCCC4)cc1 (stereo not shown); value = 15.4%
Structure (SMILES) = Cc1nc(CCN2CC3(CCNCC3)CCC2=O)sc1Cl; value = 71.1%
Structure (SMILES) = CS(=O)(=O)N1CCC(Nc2nc(Cl)ncc2F)C1 (stereo not shown); value = 98.4%
Structure (SMILES) = COc1ccc(Cl)cc1NC(=O)c1cc2c(OC)ccc(OC)c2n1C; value = 70.9%

Block 4
Structure (SMILES): COc1ccc(Cl)cc1NC(=O)Nc1cc(C)nc2ccccc12
Effect on: enzyme activity
Action: inhibitor
Concentration: 0.5 µM
Relative to: control
Endpoint: remaining activity
target = SRSF protein kinase 1 (SRPK1, Homo sapiens, UniProt Q96SB4); value = 82.5%
target = Cyclin-dependent kinase 5, with p35 (CDK5, Homo sapiens, UniProt Q00535); value = 102%
target = Protein kinase C theta type (PRKCQ, Homo sapiens, UniProt Q04759); value = 96.7%
target = Casein kinase I isoform delta (CSNK1D, Homo sapiens, UniProt P48730); value = 98.7%
target = Serine/threonine-protein kinase PAK 6 (PAK6, Homo sapiens, UniProt Q9NQU5); value = 96.5%
target = Serine/threonine-protein kinase SIK2 (SIK2, Homo sapiens, UniProt Q9H0K1); value = 87.8%
target = Tyrosine-protein kinase JAK1 (JAK1, Homo sapiens, UniProt P23458); value = 99.3%
target = Vascular endothelial growth factor receptor 1 (FLT1, Homo sapiens, UniProt P17948); value = 86.2%
target = Activin receptor type-1-like (ACVRL1, Homo sapiens, UniProt P37023); value = 98.6%
target = Calcium/calmodulin-dependent protein kinase kinase 1 (CAMKK1, Homo sapiens, UniProt Q8N5S9); value = 113%
target = Dual specificity tyrosine-phosphorylation-regulated kinase 1A (DYRK1A, Homo sapiens, UniProt Q13627); value = 103%
target = Muscle, skeletal receptor tyrosine-protein kinase (MUSK, Homo sapiens, UniProt O15146); value = 93.3%
target = Serine/threonine-protein kinase Sgk2 (SGK2, Homo sapiens, UniProt Q9HBY8); value = 96.3%
target = Maternal embryonic leucine zipper kinase (MELK, Homo sapiens, UniProt Q14680); value = 106%
target = Serine/threonine-protein kinase PAK 4 (PAK4, Homo sapiens, UniProt O96013); value = 77.9%
target = Calcium/calmodulin-dependent protein kinase type 1 (CAMK1, Homo sapiens, UniProt Q14012); value = 91.7%
target = Serine/threonine-protein kinase pim-1 (PIM1, Homo sapiens, UniProt P11309); value = 98.1%
target = Serine/threonine-protein kinase BRSK2 (BRSK2, Homo sapiens, UniProt Q8IWQ3); value = 95.2%

Block 5
SMILES: CC(C)(C(=O)O)[C@H](NC(=O)Cc1cccc(I)c1)c1ccc2oc(=O)[nH]c2c1
Technique: Incucyte 3D growth
Concentration: 30 µM
Direction: higher = more growth
Endpoint: spheroid area
cell line = PC-9; conditions = 156 h; value = 1.17e+09 a.u. and 1.28e+09 a.u. and 1.21e+09 a.u. and 1.25e+09 a.u. and 1.26e+09 a.u.
cell line = PC-9; conditions = 228 h; value = 1.77e+09 a.u. and 1.88e+09 a.u. and 1.81e+09 a.u. and 1.82e+09 a.u. and 1.83e+09 a.u. and 1.85e+09 a.u.
cell line = MEL-JUSO; conditions = 516.52 h; value = 2.57e+07 a.u. and 2.67e+07 a.u. and 1.71e+07 a.u. and 6.16e+07 a.u. and 2.8e+07 a.u. and 8.36e+07 a.u.
cell line = KP-4; conditions = 156 h; value = 2.47e+07 a.u. and 2.53e+07 a.u. and 1.71e+07 a.u. and 2.43e+07 a.u. and 2.15e+07 a.u. and 2.24e+07 a.u.
cell line = A375; conditions = 486.52 h; value = 1.79e+08 a.u. and 1.49e+08 a.u. and 1.47e+08 a.u. and 1.4e+08 a.u. and 1.62e+08 a.u. and 1.55e+08 a.u.

Other studies, line by line
SMILES = CCOC(=O)[C@@H]1CSCC(=O)N[C@H](CC)C(=O)N(C)[C@@H](C)C(=O)N[C@H](CC(C)C)C(=O)N2CCC[C@H]2C(=O)N(CC(C)C)CC(=O)N[C@H](CC(C)C)C(=O)N(C)[C@H](C)C(=O)N[C@@H](CC(C)C)C(=O)N1C; system = hydrocarbon/water; endpoint = logD; value = 1.92
SMILES = c1ccc2c(-c3nn4c(-c5ccncc5)nnc4s3)c[nH]c2c1; target or system = HEK293T ATF4-firefly luciferase reporter; assay = integrated stress response, measured: ATF4; conditions = 10 µM, without ISRIB; scale = relative to: DMSO; endpoint = reporter signal; value = 226% and 174% and 202% and 205%
